Measured values gathered from unrelated publications.
Each numbered part is a random draw from the data of one study; scales do not carry over between parts.

Block 1
Target: Replicase polyprotein 1ab, main protease (rep, Severe acute respiratory syndrome coronavirus 2, UniProt P0DTD1)
Observed: enzyme activity
Action: inhibitor
Tested at: 20 µM
Setting: hit confirmation, no DTT
Quantity: inhibition
CCC[C@H](NC(=O)/C(C#N)=C/c1cccc(Br)n1)c1ccccc1: 59.4%
S=C=NCc1ccccc1: 76.3%
NC[C@H](O)c1ccc(O)c(O)c1: 75.2%

Block 2
Cell line: HEK-293T/ACE2
Tested at: 10 µM
Time: 16 h
Reference: vehicle
Quantity: viability
CCCCCOC(=O)Nc1nc(=O)n([C@@H]2O[C@H](C)[C@@H](O)[C@H]2O)cc1F: 98.9%
Nc1ccc(S(=O)(=O)NC(=O)c2ccccc2)cc1: 101%
CCCCOc1ccc(C(=O)CCN2CCCCC2)cc1: 102%
Cc1cc(C)nc(NS(=O)(=O)c2ccc(N)cc2)n1: 99.6%

Block 3
Target: RNA binding protein fox-1 homolog 2, RRM domain, GST-SBP tag (RBFOX2, Homo sapiens, UniProt O43251-10, residues 100-194)
Technique: RNA Bind-n-Seq
Form: RNA
Sample: in vitro
Tested at: 365 nM
Setting: natural RNA segment, single round, ends assumed
Reference: no-protein control
Direction: higher = stronger binding
Quantity: RBNS enrichment (R)
Constant ends, left off below: GGGAGUUCUACAGUCCGACGAUC … UGGAAUUCUCGGGUGCCAA
UAAAGGCUUUUUAAUAGCAGACUUCCAAAAGAUUGCAUUUAGGAUUUCUAGCAUGCUUUUAAUUUCAGAUUUUCAGCUGACAUUAGCUAUAGUAUACAGUAGGUUAAGAC: 3.09
AAAUAUUUGUUUGUAAAUGAAAGUUUAGCUAGUGCUUAAAUAAACAUGUGCUAUGAAUUGUUUCUAUAUACUAGUCUUUUUCUAAUUGUAAGAAAAUUCCAGUAUUGGCA: 1.18
UGCUUUCUCAGUGUGUGUAUGGUCCAUGCCCAGUGCUGGUGACAGGGUGGGUAUCCAUGAUGUGUGCCCAGCCUGGAUGUCAGCUGUGUCCUGUGGGGGCGUGUGUGUAA: 0.932
AAUCCCUUCCUUUCACUAUCUUCUUUUUGGGGGGUAGGUGGAAGGGAUUGACAUUGGAUGGGGGAGGUAGGAGGCACAUCAAUAAAAAGGAAACCACCGAGCUGAAUUGA: 0.459
GCUCAUAGUGUUUGAAAGUGAUGUCCAUUAGUGGGACCGUAGCAUGCUUGCCUCGCAUAGAGUGCAGUUGGUAUUCAUUUACCUAUGUGCGCCAGUUUGGGUUGCCGUUA: 6.24
UCUUUCACGUGUUGUGUCCAUAGCUUUAGUCUUCCUAAAUAAGAUCCACCCACACCUAAGUCACAGAAUUUCUAAGUUCCCCAACUACUCUCACACCCUUUUAAAGAUAA: 0.738
AUCAUGGGACAUCAUGGGAUGGCAGCUAGAUAGCAUGAAACAAUUUAUCUUCUCAUAUUUGACAAAUUUGUGAUAGAAAUAAUAAUUCCCACAUCUACCGGUACUUGCCU: 3.35
UGCUUCUUUUAUUAGUAAUGUGGAUUGAUGUUUUCUCAGAGUAACUCGUUGUCUUUUCGCUUGAAAUUUUUGAUCUUGUCCUGAAGACUAGCUGCUGCUAAAACAAUGCU: 0.432

Block 4
Target: Sox-I, HMG box (Salpingoeca helianthica)
Technique: Spec-seq
Form: double-stranded DNA, one strand shown
Sample: in vitro
Tested at: not given
Setting: whole probe, mean of replicates
Reference: not given
Direction: lower = stronger binding
Quantity: relative binding energy
Residues (chain): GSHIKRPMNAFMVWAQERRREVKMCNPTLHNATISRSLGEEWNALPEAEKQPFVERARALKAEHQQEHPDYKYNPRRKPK
GAGTCGTCTCGTCAGCACGCGAGTTCCGTAGAGCACTCAGGTC: 1.12 ln ratio
GAGTCGTCTCGTCAGCACCATGCGGCCGTAGAGCACTCAGGTC: 1.34 ln ratio
GAGTCGTCTCGTCAGCACCATAACACCGTAGAGCACTCAGGTC: 0.143 ln ratio

Block 5
Target: Replicase polyprotein 1ab, polymerase (rep, Severe acute respiratory syndrome coronavirus 2, UniProt P0DTD1)
Observed: enzyme activity
Action: inhibitor
Tested at: 20 µM
Quantity: inhibition
NS(=O)(=O)c1ccc(C(=O)O)cc1: -1%
O=C(Nc1ccc2c(O)cc(S(=O)(=O)O)cc2c1)Nc1ccc2c(O)cc(S(=O)(=O)O)cc2c1: 90.5%
CC(C)(C)c1ccc(C(O)CCCN2CCC(C(O)(c3ccccc3)c3ccccc3)CC2)cc1 (stereo not drawn): -0.39%
CC(C)(C)C(=O)OCC(=O)[C@H]1CC[C@H]2[C@@H]3CCC4=CC(=O)CC[C@]4(C)[C@H]3CC[C@]12C: -1.3%
Nc1ccn(C[C@@H](CO)OCP(=O)(O)O)c(=O)n1: 1.24%
CNC(=O)O[C@H]1COc2ccc(N3CCN(C4COC4)CC3)cc2[C@@H]1NC(=O)c1ccc(F)cc1: 2.09%
O=C(NCC1CCOCC1)c1cnc(Nc2ccc(Cl)cc2Cl)nc1C(F)(F)F: -3.15%
Oc1cc2c(cc1O)C(c1ccccc1)CNCC2 (stereo not drawn): -23.5%
CCCCCCCCCCCCCCCC[N+](C)(C)CCN(Cc1ccc(OC)cc1)c1ncccn1: 12.1%
Oc1c(Cl)cc(Cl)c(Cl)c1Cc1c(O)c(Cl)cc(Cl)c1Cl: 103%
COc1cc2nc(N3CCC(N4CCCCC4)CC3)nc(NC3CCCCCC3)c2cc1OC: 10.9%
N[C@@H](Cc1c[nH]c2ccccc12)C(=O)O: -0.61%
OC[C@H]1O[C@@H](c2ccc(F)c(Cc3cc4ccccc4s3)c2)[C@H](O)[C@@H](O)[C@@H]1O: -2.86%
CC(=O)/N=c1/sc(S(N)(=O)=O)nn1C: -0.69%
C1=N/C2=N/c3ccc(OCCN4CCCC4)c(c3)COC/C=C/COCc3cccc(c3)C(=C1)N2: -1.59%
CC[C@@]1(O)C(=O)OCc2c1cc1n(c2=O)Cc2c-1nc1cc(F)c(C)c3c1c2[C@@H](N)CC3: 9.65%
COC(=O)c1ccccc1-c1c2ccc(=N)cc-2oc2cc(N)ccc12: 60.4%
Cc1ncc(-c2ccnc(Nc3ccc(S(C)(=O)=O)cc3)n2)n1C(C)C: 0.75%
CC(=O)OCC(=O)[C@H]1CC[C@H]2[C@@H]3CCC4=CC(=O)CC[C@]4(C)[C@H]3CC[C@]12C: -2.04%
COc1c(C)c2c(c(O)c1C/C=C(\C)CCC(=O)O)C(=O)OC2: 19.6%
NC(=O)c1cccc(-c2cccc(OC(=O)NC3CCCCC3)c2)c1: 0.13%
COC(=O)[C@H](Cc1ccc([N+](=O)[O-])cc1)NC(=O)c1cccc2ccccc12: -2.09%
O=C(Nc1ccccc1)[C@@]12C[C@@H]1/C(=N\O)c1ccccc1O2: 2.72%
O=C(/C=C/c1c(C(=O)O)[nH]c2cc(Cl)cc(Cl)c12)Nc1ccccc1: 30.1%
Cc1[nH]c(=O)c(C#N)cc1-c1ccncc1: -14.2%

Block 6
Target: RING finger protein unkempt homolog, zinc fingers 1-6, SBP tag (UNK, Homo sapiens, UniProt Q9C0B0, residues 30-357)
Chain of UniProt Q9C0B0 (30-357, looked up): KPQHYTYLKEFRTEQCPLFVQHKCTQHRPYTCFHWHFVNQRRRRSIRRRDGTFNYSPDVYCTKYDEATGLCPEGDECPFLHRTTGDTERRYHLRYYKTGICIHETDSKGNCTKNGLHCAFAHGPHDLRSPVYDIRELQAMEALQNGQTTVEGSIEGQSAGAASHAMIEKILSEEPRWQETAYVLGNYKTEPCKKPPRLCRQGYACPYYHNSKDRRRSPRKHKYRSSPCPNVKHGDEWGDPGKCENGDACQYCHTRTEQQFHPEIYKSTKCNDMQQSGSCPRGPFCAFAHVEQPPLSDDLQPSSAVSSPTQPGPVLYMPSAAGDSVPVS
Technique: RNA Bind-n-Seq
Form: RNA
Sample: in vitro
Tested at: 100 nM
Setting: RNA with constant flanks, vertebrate orthologous sites, ends assumed
Reference: input RNA pool
Direction: higher = stronger binding
Quantity: bound/input enrichment
Constant ends, left off below: GGGAGUUCUACAGUCCGACGAUC … CAACAGAGGAUUGAGCAUCA
CAGCUUAGCGAACACAGUUUUGGAGAAAUAAUAAUAAUAAUAUUUAAAAAAUAAAGAGCCUGAUUGGUAUCUUUUUGUCUAACUGUUUUUCAAAGAGAAAGUUUAAAAGAAAAAAAAAGA: 0.475 ratio
ACGCUUUGAUAUUAAAUUCUACAUAAAAAGCAGCUGAUCGUAAGCACAACUCUCUCCUCCUAGCCAUUUAAAAAGGUAAAAAACAAAAAAGAAAACCUACUAGUCUUGAACAAACUGUCA: 0.84 ratio
CUUUUAAUCGACUAUGUCUGUAAAUGUAUAUUGAGAGAAUUUAAGUAUUUAUAAACAGAGUGAUUUAUUUAAGGAAAAGCUUAUCCCUCUUUCAUAUGGUGGUCUGUGUUAAUUCCAUUU: 0.645 ratio
GCACUACCUAUACCAAUUUUACAACAUUGAAUGCAAAAUAGUGAAUUUCAUAGUCACAGAGGAAGAUAGCUUUAGGGCACUGUCCCCAUGGGUUUUACUUGUGUAGGUUUUGAAAAUGUA: 0.88 ratio
CUCUCUGAGCGAUAGUAUUCCAUCUGUAGCAGAUUCACACUCCAGCCAUUUCUCUGAGUUCAGUUGCUCAGAUAUGGAAAGUAUGAAAACUUCCUGUAGCCAUGGUUCCAGCGACUACCA: 0.403 ratio
ACUAAUUCCAGAGUAGUAUAUGUUUCAUAAAGAGAAGUCUUUAUAAUUUUGUUUGUCAUAUAGUAUUUUGGAAUUUGUAUAAUGAGGAUGUUUAGUAGCCAUAUCUCAAUGGCUUUUUUA: 0.579 ratio
UCAUCUCUUUUUAUAUGUCAAAAAAUGGCUUUGAAUUUUUAAACAAUUGCUAGUUUUAAUUAGCUCUGCUGUCAUGAAGUAUUGUUAUAGUUCGCCACAAAUAUAUCUCUGAAUUACUUC: 0.551 ratio
GACCUCCUGAACUUCUAGCUUUCCAGUUGGGGCUGUUUUAGAUACUGAUUUUCUUUUCCUUAGAGUUUUUCCCUGUUUCCUGCCUUUCUUCCCCUGUUCCCAAGGUUUGACUUCCGGAUU: 2.32 ratio

Some of these lines once more (block 5):
Oc1c(Cl)cc(Cl)c(Cl)c1Cc1c(O)c(Cl)cc(Cl)c1Cl: 103%
COc1cc2nc(N3CCC(N4CCCCC4)CC3)nc(NC3CCCCCC3)c2cc1OC: 10.9%
N[C@@H](Cc1c[nH]c2ccccc12)C(=O)O: -0.61%
OC[C@H]1O[C@@H](c2ccc(F)c(Cc3cc4ccccc4s3)c2)[C@H](O)[C@@H](O)[C@@H]1O: -2.86%
CC(=O)/N=c1/sc(S(N)(=O)=O)nn1C: -0.69%
C1=N/C2=N/c3ccc(OCCN4CCCC4)c(c3)COC/C=C/COCc3cccc(c3)C(=C1)N2: -1.59%
CC[C@@]1(O)C(=O)OCc2c1cc1n(c2=O)Cc2c-1nc1cc(F)c(C)c3c1c2[C@@H](N)CC3: 9.65%
COC(=O)c1ccccc1-c1c2ccc(=N)cc-2oc2cc(N)ccc12: 60.4%
